Experimental data collected from several papers.
Compare with care: the assays were run in different laboratories. ± gives the spread as reported.

CCC1(CC)CC(=O)N(C2CCOc3ccc(C(=O)NC4CC(C)(C)Oc5ccccc54)cc32)C(=N)N1 (centres unmarked)
half-life (beagle dog male, plasma): 768 ± 414 min

N#Cc1ccnc(N2C(=O)CC[C@H]2C(=O)N(c2cncc(F)c2)[C@H](C(=O)NC2CC(F)(F)C2)c2ccccc2Cl)c1
half-life (beagle dog, plasma): 1140 min

Cl.NCc1ccc2c(c1)CN(C1CCC(=O)NC1=O)C2=O (centres unmarked)
half-life (male Beagle dog, whole blood): 7.3 min

Nc1nc2cnc(C(=O)N3CCOC[C@@H]3c3ccc(C(F)(F)F)cc3)cc2c2c1COC2
half-life (dog; 2 mg/kg): 546 min

OCC1OC(n2cnc3c(NCc4ccc(Br)s4)ncnc32)C(O)C1O (centres unmarked)
half-life (Beagle dogs, both sexes, blood; oral, 3 mg/kg): 414 to 564 min

N#Cc1ccnc(N2C(=O)CC[C@H]2C(=O)N(c2cc(F)cc(F)c2)[C@H](C(=O)NC2CC(F)(F)C2)c2ccccc2Cl)c1 (stereo in doubt)
half-life (beagle dog, plasma): 1950 min

CCC1(CC)CC(=O)N(C2c3cc(C(=O)NC4c5ccccc5CC4O)ccc3OC2(C)COC)C(=N)N1 (centres unmarked)
half-life (beagle dog male, plasma): 660 ± 264 min

CCCC[C@H](OC(C)=O)c1ccccc1C(=O)O
half-life (beagle dog, both sexes, whole blood; intravenous, 0.5 mg/kg, single dose, fitted within 1 h): 19.8 ± 8.4 min

Some of these lines once more:
Cl.NCc1ccc2c(c1)CN(C1CCC(=O)NC1=O)C2=O (centres unmarked)
half-life (male Beagle dog, whole blood): 7.3 min
